Results from different studies.
Protocols differ between the studies behind these lines. ± gives the spread as reported.
Cell line: SW480

Structure (SMILES)	observed	method	time	IC50
CC(C)CCc1c(O)cc2oc3cc(O)c(O)c(CCC(C)C)c3c(=O)c2c1O	cell growth or viability		48 h	11.6 µM
N[C@@H]1CCCC[C@H]1N.O=C1[O][Pt]2([O]C1=O)[O]C(=O)C(=O)[O]2	cell viability	MTT	96 h	14 ± 3 µM
C[N+]1(C)CC[NH2+][Pt-2]1([OH])([Cl])([Cl])[O]C(=O)CCC(=O)OCCO	cell growth or viability	MTT	96 h	77 µM
COc1ccc(-c2coc3c(CC=C(C)C)c(O)c(CC=C(C)C)c(O)c3c2=O)cc1O	cell growth or viability	MTT		72.7 µM
COc1c(O)cc2oc3cc(O)c(CC=C(C)C)c(O)c3c(=O)c2c1CC=C(C)C	cell growth or viability		48 h	14.5 µM
C[O][Pt-2]([NH3+])([NH3+])([OH])([Cl])[Cl]	cell growth or viability	MTT	96 h	3.9 µM
COc1c(O)cc2oc3c(Cl)c(O)c(CC=C(C)C)c(O)c3c(=O)c2c1CC=C(C)C	cell growth or viability		48 h	> 40 µM
Cc1ccc(C(C)C)cc1.Cc1ncc(CO)c(C=NNC2=Nc3ccccc3-c3[nH]c4ccc(Br)cc4c3C2)c1O.[Cl-].[Cl][Os+]	cell growth or viability	MTT	96 h	4.1 µM
CC(C)=CCc1c(O)c(CC=C(C)C)c2occ(-c3ccc(O)c(O)c3)c(=O)c2c1O	cell growth or viability	MTT		> 100 µM
Cc1c([O][Ru][Cl])c(=O)ccn1CCCCn1ccc(=O)c([O][Ru][Cl])c1C.Cc1ccc(C(C)C)cc1.Cc1ccc(C(C)C)cc1	cell growth or viability	MTT	96 h	28 µM
COc1c(O)cc2oc3cc4c(c(O)c3c(=O)c2c1CCC(C)(C)O)CCC(C)(C)O4	cell growth or viability		48 h	> 40 µM
C[O][Pt-2]([NH3+])([NH3+])([Cl])([Cl])[O]C(=O)CCC(=O)OCCO	cell growth or viability	MTT	96 h	37 µM
Cc1ccc(C(C)C)cc1.Oc1ccccc1C=NNC1=Nc2ccccc2-c2[nH]c3ccc(Br)cc3c2C1.[Cl-].[Cl][Os+]	cell growth or viability	MTT	96 h	1.7 µM
COc1c(O)cc2oc3cc4c(c(O)c3c(=O)c2c1CC=C(C)C)CC(O)O4 (stereo not drawn)	cell growth or viability		48 h	18.2 µM
C[O][Pt-2]1([Cl])([Cl])([O]C(=O)CCC(=O)O)[NH2+]CC[N+]1(C)C	cell growth or viability	MTT	96 h	135 µM

For quick reference, copied from above:
Structure (SMILES)	observed	method	time	IC50
COc1c(O)cc2oc3cc4c(c(O)c3c(=O)c2c1CC=C(C)C)CC(O)O4 (stereo not drawn)	cell growth or viability		48 h	18.2 µM
